# Experimental data from different studies.
# Numbered parts are unrelated; each lists some results of a single study.

# Block 1
# Target: Centromere-binding protein 1, full length, N-terminal tag (CBF1, Saccharomyces cerevisiae, UniProt P17106, residues 1-351)
# Sequence of UniProt P17106 (whole entry, looked up): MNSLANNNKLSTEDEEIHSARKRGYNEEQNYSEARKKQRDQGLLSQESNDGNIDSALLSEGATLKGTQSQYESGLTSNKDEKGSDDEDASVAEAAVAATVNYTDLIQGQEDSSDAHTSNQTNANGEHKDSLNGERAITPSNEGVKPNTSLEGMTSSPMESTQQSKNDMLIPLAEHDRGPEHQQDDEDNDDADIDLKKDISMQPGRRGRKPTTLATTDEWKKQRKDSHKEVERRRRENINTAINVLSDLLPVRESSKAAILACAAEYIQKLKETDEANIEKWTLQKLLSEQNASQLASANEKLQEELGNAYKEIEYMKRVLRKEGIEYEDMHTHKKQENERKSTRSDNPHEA
# Method: protein-binding microarray
# Form: double-stranded DNA, one strand shown
# Matrix: in vitro
# Tested at: 0.8 µM
# Notes: whole 60-bp probe, no competitor
# Direction: higher = stronger binding
# Constant ends, left off below: … GTCTTGATTCGCTTGACGCTGCTG
Strand,fluorescence intensity
GAACCTATGCGCCTAAACGTCACCGTCTAACCTTAG,530 a.u.
CTATCTCGACTATTTTGCGTGACACTTCCTTAGTTC,607 a.u.
GAATTAAAAAGCTGCACGTGACTAACTAGAACCTAG,22000 a.u.
CTACTAATAAGAACGGTGATGATGGTTATTATGTTC,525 a.u.
CTATTACAAGAAAGTCTGATGAAATTTTTCTTTTTC,541 a.u.
GAATAAAAGGTAACGCCCACCACGTTCGCCACCTAG,518 a.u.
CTAGTGCTGCCCCGCCACATGCAATCGGGCCGTTTC,535 a.u.
GAATTTTACTTGCACGTGACCAAGAATGGTAATTAG,35400 a.u.
GAAAGTGCAGAAGATCACGCGGTTTAATTCGTCTAG,1530 a.u.
CTACCCCAAAGTGGTCATGTTAAGGAGGGCATTTTC,490 a.u.
CCTAACTACTATAATAGTGTGACATAGCTTCGTACA,555 a.u.
TGTACGAAGCTATAGATGGTGACTATAGTAGTTAGG,545 a.u.
CCTAACTACTATAAGAGCGTGGGATAGCTTCGTACA,513 a.u.
GAATACTATTTTCATCAGGGCCAACAAAAAAAATAG,543 a.u.
GAAGCTGTGAAGAGTGGTGTGGATCCAAACGCGTAG,486 a.u.
CTACACGAATAACATCACGAAATTTATCGACAGTTC,567 a.u.
CTAGATAGATGGCCGAACGTGGACTGCCTCTATTTC,500 a.u.
CTACGATAACGGTACCACGTTCCCATAAAATTCTTC,729 a.u.
GAAGTTAACTTTCATCTGATCAGGAATATGAAATAG,700 a.u.

# Block 2
# Target: Prothrombin, mature alpha-thrombin (F2, Homo sapiens, UniProt P00734)
# Method: aptamer microarray, sandwich
# Form: DNA with 2'F-ANA
# Matrix: in vitro
# Tested at: 200 nM
# Notes: whole 15-mer aptamer, many near background
# Together with: Cy3 exosite-II aptamer, 400 nM
# Direction: higher = stronger binding
# Strand: GGTTGGTGTGGTTGG
Modification,mean fluorescence intensity [a.u.]
2'F-ANA at 1 8 9 12 13,328
2'F-ANA at 2 5 6 8 10 11 14,45.6
2'F-ANA at 3 4 6 7 8 9 10 11 12 13 14 15,191
2'F-ANA at 1 4 7 11 13 14 15,124
2'F-ANA at 1 5 6 7 9 11 14 15,46.1
2'F-ANA at 3 5 6 8 9 10 11 13,66.1
2'F-ANA at 1 2 5 6 7 8 9 11 12 15,91.6
2'F-ANA at 2 9 10 12 13 14,87.1
2'F-ANA at 3 6 14 15,519
2'F-ANA at 1 4 6 8 9 10 13 14 15,60.2
2'F-ANA at 1 3 4 5 7 10 11 12 13 14 15,47.1
2'F-ANA at 2 3 5 6 7 8 10 12,65.2
2'F-ANA at 2 4 5 6 7 12 13 15,80.3
2'F-ANA at 1 6 7 9 10 14 15,46.1
2'F-ANA at 1 2 3 5 7 15,63.1
2'F-ANA at 2 3 5 7 8 13 14 15,56.5
2'F-ANA at 1 7 8 9 10 11 12 13,100
2'F-ANA at 3 4 8 9 10,339
2'F-ANA at 1 3 5 6 7 8 9 11 12 14 15,51.7
2'F-ANA at 4 5 7 8 9 10 12 14 15,47.8
2'F-ANA at 3 4 6 8 12 13 14,319

# Block 3
# Target: RNA binding protein fox-1 homolog 2, RRM domain, GST-SBP tag (RBFOX2, Homo sapiens, UniProt O43251-10, residues 100-194)
# Method: RNA Bind-n-Seq
# Form: RNA
# Matrix: in vitro
# Tested at: 365 nM
# Notes: natural RNA segment, single round, ends assumed
# Reference: no-protein control
# Direction: higher = stronger binding
# Constant ends, left off below: GGGAGUUCUACAGUCCGACGAUC … UGGAAUUCUCGGGUGCCAA
# Residues (chain): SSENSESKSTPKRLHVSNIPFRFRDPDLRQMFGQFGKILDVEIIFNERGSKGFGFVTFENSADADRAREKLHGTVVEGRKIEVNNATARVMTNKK
Strand,RBNS enrichment (R)
AAAAAAUAAUAAAGAAGUGAGACUAUUAGACAAAGUAUUUAUGUAAUUAUUUGAUAACUCUUGUAAAUAGGUGGAAUAUGAAUGCUUGGAAAAUUAAACUUUAAUUUAUU,1.45
AUGUUUGUAGGAAUCUCAUUCCCAUCGACCUUUACCGAUGGAGAGCCAAUUGUAAUUCUUUUGCCCUAAGGACUAGGGACUCCUAAGUUGAGGGUUGUGAUCAGAGGUCC,0.625
CUCAGAAUAUUAAUUUGUAAAUUCUGCAAGUUUAAUUUUUAUGUAGAUGGUAUAACAUUUGAAAAUAUUGUCUUAUGUGAUUUUUUCCCCUGAAAAUAUUUGCUUGUAAA,0.846
CAUUCUGGCCUGGUGUGUCUGAAAGUUGCAUCAGUCCUCACGGUGCAAACACAGUUGAUUUAGGAAGUCACACAAUGACACUGAAAUCCUACAGACCAAAAUCCACUUGU,0.221
GCAUUUUCAGUAUAUGAGGAGCUGAGAAAGCGCUGCCUGUCUGGUCCUUCAUUUGGCCAGCUAACAUUCUGUCGAGCACCUGCAUUGUGCUGGAUUCAUGCUUCCAGAUG,0.873
UGGGGAAGGGGCUGCCAACGAACCAGACUCAGUGACCACGUCAUGACAGAACAGCACAUCCUGGCCAGCACCCCUGGCUGGAGUGGGUUAAAGGGACGAGUCUGCCUUCC,0.416
CAUUCUCCAUUCUCCAUUUCCCUCUUCAAGGAUGGGCAAUCUACCAAAAUCCCUCAAGAUAACCCUUUGCUAGGAAGUGGUGAAUCUAAAAGCUGAAGCACGUUUCAUAU,1.46
GGCCCCUCUUUCUUGGGGACCCAGUAUGUCCUCUCCUCUAGACCCAGACAUACAGUUAUAACCGUCUGUCCUAGCCCCUCCCUAAUCCCUGGCCCUCCCAGCUGUCUGGG,0.248

# Block 4
# Target: RING finger protein unkempt homolog, zinc fingers 1-6, GST-SBP tag (UNK, Homo sapiens, UniProt Q9C0B0, residues 30-357)
# Sequence of UniProt Q9C0B0 (30-357, looked up): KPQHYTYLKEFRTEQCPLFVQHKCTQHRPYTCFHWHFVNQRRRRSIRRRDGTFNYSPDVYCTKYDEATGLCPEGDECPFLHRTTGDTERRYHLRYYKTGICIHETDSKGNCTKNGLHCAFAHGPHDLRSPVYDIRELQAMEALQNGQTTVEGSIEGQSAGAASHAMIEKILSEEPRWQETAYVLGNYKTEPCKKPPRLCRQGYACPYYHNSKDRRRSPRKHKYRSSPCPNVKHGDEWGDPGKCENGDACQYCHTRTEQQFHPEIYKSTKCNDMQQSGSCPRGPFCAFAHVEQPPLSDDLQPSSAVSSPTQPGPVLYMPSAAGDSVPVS
# Method: RNA Bind-n-Seq
# Form: RNA
# Matrix: in vitro
# Tested at: not given
# Notes: RNA with constant flanks, ends assumed
# Reference: input RNA pool
# Direction: higher = stronger binding
# Constant ends, left off below: GGGAGUUCUACAGUCCGACGAUC … CAACAGAGGAUUGAGCAUCA
Strand,bound/input enrichment
UUUUUUACACCAUACGUGUAUCCAGCCACAUGGCCAGAAGAUGACAUCUUCCGACAAGCUAUCCGUCUUCUGAUUGUAACAAAUGUUGGUGCUUACAUCCUUUAUUUCUUCUGUGCAACA,0.302 ratio
AGUAACUAACCACCAAGAACCUCUUCUGUAACCCAGAGUGAGAAAGCUGUAGGCAUAUUCCCGCAGGUAUCAAUGUCUCUGGCAUCCUUUAGAGCCUUACUCUGGUUAACUGACUCUCAG,0.159 ratio
AUUACUCUAAUGGAGUACUAUUCCAAAGAAGCCUUGGGUGAUUCCAAAUCUAAGAAGUCAGCCGCUUAUAAUUACGCAUGCAUACUUAUUUUGGUGGUGGUUCAGUCUUCCAGUGAUGUU,0.375 ratio
GGCUGACAUGGCUGGCCAUUAAGCUUUAUAAAAUCAUGUGGGCUCUGAAAUUGUUCUUUUAUGUGUCCCGCAAGUAUUUAAUAAACCCUUGUAUAGUAAUUUUGUUGUUGUUGGGUGCUG,9.67 ratio
GUUUACGAGGUCACCUCUACCAAGUACACUCGUGAUAUCUAUAAAGAGCUCCUCAUCUCCUCCGUGGCCUCACUCUUCAUGGGCUUUGGAGUCCUCUUCCUGCUGCUCUGGGUUGGCAUC,0.161 ratio
UCUUGGGCAGAAGAGACAAACUCAAUGUUAAAAUCUCUAGGAGUGACCACGAAGUUUCACCGUUUUCCAAAUGUUUACCAUGAGCUAAGCAAAACUGAGUUAGACAUAUUGAAGUUAUGG,0.278 ratio
UGGUCAAUAUUCCUAGGAAUGGGAACAUUACUCUGGGGCCAGCUUAUUUCAACAAUUCCAACCCGCCGUUUAAAAUUCCUCAAAGAAGCUGGUCAUGGAACACAAAAGGAAGAAAUACCU,0.399 ratio
CCAGCAGAGAAGAAAUGUGGAGCGGAAACCCAGCACGAGGGGCUAGAACUCAGGGCCGAGAAUUUGCAGGCGGUGCAGACAGACUUUAGCUCCGAUCCACUGCAGAAAGUUGUGUGCUUC,0.203 ratio

# Some of these lines once more (block 4):
Strand,bound/input enrichment
UUUUUUACACCAUACGUGUAUCCAGCCACAUGGCCAGAAGAUGACAUCUUCCGACAAGCUAUCCGUCUUCUGAUUGUAACAAAUGUUGGUGCUUACAUCCUUUAUUUCUUCUGUGCAACA,0.302 ratio
GGCUGACAUGGCUGGCCAUUAAGCUUUAUAAAAUCAUGUGGGCUCUGAAAUUGUUCUUUUAUGUGUCCCGCAAGUAUUUAAUAAACCCUUGUAUAGUAAUUUUGUUGUUGUUGGGUGCUG,9.67 ratio
AUUACUCUAAUGGAGUACUAUUCCAAAGAAGCCUUGGGUGAUUCCAAAUCUAAGAAGUCAGCCGCUUAUAAUUACGCAUGCAUACUUAUUUUGGUGGUGGUUCAGUCUUCCAGUGAUGUU,0.375 ratio
